Measurements gathered from unrelated publications.
Parts stem from different laboratories: compare values within a part only.
Chain of UniProt Q15746 (whole entry, looked up): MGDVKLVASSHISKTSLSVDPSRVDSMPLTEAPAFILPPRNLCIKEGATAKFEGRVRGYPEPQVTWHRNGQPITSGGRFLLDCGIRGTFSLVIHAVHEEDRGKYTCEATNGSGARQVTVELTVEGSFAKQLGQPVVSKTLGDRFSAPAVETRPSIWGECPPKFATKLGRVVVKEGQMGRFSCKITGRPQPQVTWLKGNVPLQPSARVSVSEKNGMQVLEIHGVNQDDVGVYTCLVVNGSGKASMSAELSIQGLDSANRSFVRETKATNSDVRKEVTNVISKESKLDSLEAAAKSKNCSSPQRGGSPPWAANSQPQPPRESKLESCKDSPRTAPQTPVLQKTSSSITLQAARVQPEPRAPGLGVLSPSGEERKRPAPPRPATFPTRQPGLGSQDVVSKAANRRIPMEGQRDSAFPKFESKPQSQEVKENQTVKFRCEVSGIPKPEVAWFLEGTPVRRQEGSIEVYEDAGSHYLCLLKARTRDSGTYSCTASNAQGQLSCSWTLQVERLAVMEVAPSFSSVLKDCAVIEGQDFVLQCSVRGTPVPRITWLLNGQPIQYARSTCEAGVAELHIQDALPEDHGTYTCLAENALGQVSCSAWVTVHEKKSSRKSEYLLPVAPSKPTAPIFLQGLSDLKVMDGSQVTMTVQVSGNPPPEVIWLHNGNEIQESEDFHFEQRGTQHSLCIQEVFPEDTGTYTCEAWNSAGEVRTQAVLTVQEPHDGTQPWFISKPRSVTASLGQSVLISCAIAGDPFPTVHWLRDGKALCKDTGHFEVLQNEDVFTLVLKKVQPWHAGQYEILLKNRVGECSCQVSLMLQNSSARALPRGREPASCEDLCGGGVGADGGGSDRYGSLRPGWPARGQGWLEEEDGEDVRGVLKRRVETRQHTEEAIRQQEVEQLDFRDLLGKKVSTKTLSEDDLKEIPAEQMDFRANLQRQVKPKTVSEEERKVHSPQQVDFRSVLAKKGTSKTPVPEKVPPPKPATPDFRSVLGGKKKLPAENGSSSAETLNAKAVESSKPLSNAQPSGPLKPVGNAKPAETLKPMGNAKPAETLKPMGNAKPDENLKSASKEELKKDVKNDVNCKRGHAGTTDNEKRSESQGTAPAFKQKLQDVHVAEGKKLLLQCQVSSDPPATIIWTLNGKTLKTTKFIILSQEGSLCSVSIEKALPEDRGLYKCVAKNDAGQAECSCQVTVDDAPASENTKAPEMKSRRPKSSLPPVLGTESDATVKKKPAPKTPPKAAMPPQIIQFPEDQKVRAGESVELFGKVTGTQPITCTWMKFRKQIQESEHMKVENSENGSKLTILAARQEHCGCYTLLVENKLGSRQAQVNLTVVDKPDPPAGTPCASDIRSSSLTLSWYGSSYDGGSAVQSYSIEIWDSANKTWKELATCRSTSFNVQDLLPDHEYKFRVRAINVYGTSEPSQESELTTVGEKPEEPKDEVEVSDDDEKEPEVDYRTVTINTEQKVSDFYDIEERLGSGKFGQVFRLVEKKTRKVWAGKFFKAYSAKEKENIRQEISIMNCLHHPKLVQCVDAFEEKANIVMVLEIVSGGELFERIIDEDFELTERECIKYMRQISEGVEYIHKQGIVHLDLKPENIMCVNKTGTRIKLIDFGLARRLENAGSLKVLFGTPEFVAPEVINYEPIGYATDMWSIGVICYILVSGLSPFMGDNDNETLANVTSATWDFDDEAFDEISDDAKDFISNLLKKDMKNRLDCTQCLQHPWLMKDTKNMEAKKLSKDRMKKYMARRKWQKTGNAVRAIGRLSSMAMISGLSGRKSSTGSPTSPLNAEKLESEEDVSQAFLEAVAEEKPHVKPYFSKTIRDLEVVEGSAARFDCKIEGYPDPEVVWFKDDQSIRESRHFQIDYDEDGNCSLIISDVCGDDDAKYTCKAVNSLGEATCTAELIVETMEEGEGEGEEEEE
Chain of UniProt Q00532 (whole entry, looked up): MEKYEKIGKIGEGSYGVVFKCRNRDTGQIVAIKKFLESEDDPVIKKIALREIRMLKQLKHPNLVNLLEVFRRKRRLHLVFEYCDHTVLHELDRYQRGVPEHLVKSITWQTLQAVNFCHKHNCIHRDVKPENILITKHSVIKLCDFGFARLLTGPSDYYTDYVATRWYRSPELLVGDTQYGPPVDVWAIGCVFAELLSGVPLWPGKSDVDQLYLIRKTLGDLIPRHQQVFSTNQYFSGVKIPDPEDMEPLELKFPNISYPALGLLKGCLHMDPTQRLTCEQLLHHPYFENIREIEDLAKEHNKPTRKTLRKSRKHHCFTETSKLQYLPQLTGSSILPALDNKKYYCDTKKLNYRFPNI
Chain of UniProt Q8WTQ7 (whole entry, looked up): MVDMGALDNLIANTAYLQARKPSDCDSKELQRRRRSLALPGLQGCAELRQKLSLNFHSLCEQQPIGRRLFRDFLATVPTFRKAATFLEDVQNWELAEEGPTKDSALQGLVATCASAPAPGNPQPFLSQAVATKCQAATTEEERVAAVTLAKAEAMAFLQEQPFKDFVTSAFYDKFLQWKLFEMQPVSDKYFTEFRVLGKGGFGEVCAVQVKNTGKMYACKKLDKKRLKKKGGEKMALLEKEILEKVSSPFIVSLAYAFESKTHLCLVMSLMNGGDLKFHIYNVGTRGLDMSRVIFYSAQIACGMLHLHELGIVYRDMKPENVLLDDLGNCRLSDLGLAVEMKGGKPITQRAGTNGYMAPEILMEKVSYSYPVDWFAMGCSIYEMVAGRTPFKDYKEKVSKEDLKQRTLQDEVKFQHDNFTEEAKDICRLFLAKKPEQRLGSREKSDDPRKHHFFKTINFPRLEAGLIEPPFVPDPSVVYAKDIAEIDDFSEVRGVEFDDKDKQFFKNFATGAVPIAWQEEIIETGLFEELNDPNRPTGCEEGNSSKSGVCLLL
Chain of UniProt Q9Y2H1 (whole entry, looked up): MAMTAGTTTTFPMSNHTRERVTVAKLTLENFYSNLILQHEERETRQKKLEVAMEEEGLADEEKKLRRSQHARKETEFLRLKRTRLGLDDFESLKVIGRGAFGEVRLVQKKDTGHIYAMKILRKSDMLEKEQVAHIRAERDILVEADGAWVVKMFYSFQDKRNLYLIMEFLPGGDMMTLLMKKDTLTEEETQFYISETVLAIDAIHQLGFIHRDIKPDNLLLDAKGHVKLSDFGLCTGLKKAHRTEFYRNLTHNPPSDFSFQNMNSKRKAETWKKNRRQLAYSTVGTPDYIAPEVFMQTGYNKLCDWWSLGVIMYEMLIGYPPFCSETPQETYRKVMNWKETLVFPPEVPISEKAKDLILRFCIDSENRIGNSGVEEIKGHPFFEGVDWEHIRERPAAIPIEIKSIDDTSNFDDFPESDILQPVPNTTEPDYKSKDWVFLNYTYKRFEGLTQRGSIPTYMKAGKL
Chain of UniProt O75385 (whole entry, looked up): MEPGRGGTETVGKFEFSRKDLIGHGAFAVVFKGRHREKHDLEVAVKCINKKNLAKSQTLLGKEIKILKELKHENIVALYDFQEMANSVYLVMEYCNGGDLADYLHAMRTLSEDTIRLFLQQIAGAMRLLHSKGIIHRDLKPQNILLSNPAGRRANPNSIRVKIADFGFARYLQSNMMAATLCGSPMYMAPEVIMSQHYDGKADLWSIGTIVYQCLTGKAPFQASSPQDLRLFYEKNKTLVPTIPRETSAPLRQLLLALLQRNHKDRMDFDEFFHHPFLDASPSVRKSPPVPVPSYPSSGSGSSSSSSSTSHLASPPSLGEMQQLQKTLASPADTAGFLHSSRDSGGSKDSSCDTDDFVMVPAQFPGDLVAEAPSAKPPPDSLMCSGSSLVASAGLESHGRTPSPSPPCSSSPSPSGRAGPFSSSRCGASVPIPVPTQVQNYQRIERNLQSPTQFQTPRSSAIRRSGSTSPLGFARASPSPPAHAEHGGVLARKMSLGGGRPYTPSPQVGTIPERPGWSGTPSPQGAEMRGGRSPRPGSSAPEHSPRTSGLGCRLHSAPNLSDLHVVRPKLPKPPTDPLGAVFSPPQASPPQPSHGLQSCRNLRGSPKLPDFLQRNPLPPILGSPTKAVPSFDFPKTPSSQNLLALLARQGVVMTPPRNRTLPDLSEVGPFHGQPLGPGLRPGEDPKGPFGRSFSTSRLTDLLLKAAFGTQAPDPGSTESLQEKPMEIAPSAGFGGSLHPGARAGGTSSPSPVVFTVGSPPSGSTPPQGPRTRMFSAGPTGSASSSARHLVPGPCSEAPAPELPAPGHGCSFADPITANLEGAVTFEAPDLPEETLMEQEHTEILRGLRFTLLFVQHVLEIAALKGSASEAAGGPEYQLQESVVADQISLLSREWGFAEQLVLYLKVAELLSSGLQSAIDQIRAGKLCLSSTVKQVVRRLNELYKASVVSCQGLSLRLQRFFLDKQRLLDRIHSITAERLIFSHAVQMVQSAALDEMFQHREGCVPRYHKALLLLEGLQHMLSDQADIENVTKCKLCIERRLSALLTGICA

Series 1
Target: Ras GTPase-activating protein-binding protein 1, RRM domain (G3BP1, Homo sapiens, UniProt Q13283)
Chain of UniProt Q13283 (whole entry, looked up): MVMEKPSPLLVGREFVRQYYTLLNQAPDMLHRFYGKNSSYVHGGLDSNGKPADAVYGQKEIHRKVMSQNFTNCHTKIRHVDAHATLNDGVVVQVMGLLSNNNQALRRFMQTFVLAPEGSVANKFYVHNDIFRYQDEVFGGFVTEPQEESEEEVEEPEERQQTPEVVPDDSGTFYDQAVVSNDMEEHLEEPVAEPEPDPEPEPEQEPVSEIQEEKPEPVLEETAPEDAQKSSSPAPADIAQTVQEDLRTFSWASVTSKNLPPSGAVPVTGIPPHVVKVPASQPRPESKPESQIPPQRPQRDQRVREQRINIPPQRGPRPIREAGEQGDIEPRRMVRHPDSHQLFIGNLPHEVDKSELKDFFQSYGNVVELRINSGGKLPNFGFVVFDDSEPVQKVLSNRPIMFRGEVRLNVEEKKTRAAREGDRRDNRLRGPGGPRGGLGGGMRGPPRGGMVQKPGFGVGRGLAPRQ
Technique: RNA Bind-n-Seq
Molecule type: RNA
Sample: in vitro
Concentration: 1 µM
Setting: whole 134-nt RNA, ends assumed
Added: 150 mM KCl
Baseline: input library
Reading: higher = stronger binding
Shared flanks, not repeated: GGGAGUUCUACAGUCCGACGAUC … UGGAAUUCUCGGGUGUCAAGG
Oligonucleotide	log2 enrichment
UCCUGUGCUACACAUCGUAUGUACCGAAUCGGGUUUGGGAAAAAAAGGGUUUUUUUGGGAAAGUAUUAUGUUACGCCGUUCGGAUCUGCA	0.0935
UCCUGUGCUACACAUCGUAUGUACCGAAUCGGGAAAAAAGGGAAAAAAGGAAAAAAGGGGAAAGUAUUAUGUUACGCCGUUCGGAUCUGC	0.0968
UAACUUUAGAGGAGGAUCUGAUGGAUAUGGCAGUGGACGUGGAUUUGGGGAUGGCUAUAAUGGGUAUGGAGGAGGACGUGGAGGUGGCAA	-0.296
CCUCAAGUCCUGUGCUACACAUCGUAUGUACCGAAUCGGGCGGGCGGGGCGGAAAGUAUUAUGUUACGCCGUUCGGAUCUGCACUUCCAG	-0.0668
CCUCAAGUCCUGUGCUACACAUCGUAUGUACCGAAUCGGUUUUUGGAGGUGGAAAGUAUUAUGUUACGCCGUUCGGAUCUGCACUUCCAG	-0.18
UCCUCAAGUCCUGUGCUACACAUCGUAUGUACCGAAUCGGAGGAGGGGAGGAAAGUAUUAUGUUACGCCGUUCGGAUCUGCACUUCCAGC	-0.276
CCUGUGCUACACAUCGUAUGUACCGAAUCGGGUUUUUUUGGGUUUUUUUGGGAAAAAGGGAAAGUAUUAUGUUACGCCGUUCGGAUCUGC	-0.209
AGUCCUGUGCUACACAUCGUAUGUACCGAAUCGGGGAAAGGGGUUUUUGGGGAGGGGAAAGUAUUAUGUUACGCCGUUCGGAUCUGCACU	1.22

Series 2
Target: TAR DNA-binding protein 43, full length, His tag (TARDBP, Homo sapiens, UniProt Q13148, residues 1-414)
Technique: RNA Bind-n-Seq
Molecule type: RNA
Sample: in vitro
Concentration: 20 nM
Setting: 6-mer, flanks averaged, single round
Added: 150 mM LiCl
Baseline: input library
Reading: higher = stronger binding
Oligonucleotide	6-mer enrichment (R)
GGUCCA	0.903
GCUUCC	0.896
ACGGUG	1.04
CACACC	0.964
UACAUA	0.873
AAACGG	0.837
AGGUUG	1.11
UUUAAU	1.1

Series 3
Structure (SMILES): C[C@@H]1CN(c2cc(-c3n[nH]c4ccc(OC5(C)CC5)cc34)ncn2)C[C@H](C)O1
Observed: cell-free assay
Technique: competition with immobilised ligand
Concentration: 0.1 µM
target	remaining binding [%]
Peripheral plasma membrane protein CASK (CASK, Homo sapiens, UniProt O14936)	59
Mitogen-activated protein kinase kinase kinase kinase 2 (MAP4K2, Homo sapiens, UniProt Q12851)	76
Mast/stem cell growth factor receptor Kit (KIT, Homo sapiens, UniProt P10721, L576P)	100
Serine/threonine-protein kinase ULK1 (ULK1, Homo sapiens, UniProt O75385)	80
Dual specificity tyrosine-phosphorylation-regulated kinase 1B (DYRK1B, Homo sapiens, UniProt Q9Y463)	93
Serine/threonine-protein kinase 38-like (STK38L, Homo sapiens, UniProt Q9Y2H1)	85
Serine/threonine-protein kinase 32A (STK32A, Homo sapiens, UniProt Q8WU08)	92
Cyclin-dependent kinase-like 1 (CDKL1, Homo sapiens, UniProt Q00532)	89
Serine/threonine-protein kinase 24 (STK24, Homo sapiens, UniProt Q9Y6E0)	96
Serine/threonine-protein kinase ICK (CILK1, Homo sapiens, UniProt Q9UPZ9)	62
Ribosomal protein S6 kinase alpha-5, C-terminal kinase domain (RPS6KA5, Homo sapiens, UniProt O75582)	89
Protein kinase C delta type (PRKCD, Homo sapiens, UniProt Q05655)	100
Myosin light chain kinase, smooth muscle (MYLK, Homo sapiens, UniProt Q15746)	56
Mitogen-activated protein kinase kinase kinase kinase 1 (MAP4K1, Homo sapiens, UniProt Q92918)	84
Receptor tyrosine-protein kinase erbB-3 (ERBB3, Homo sapiens, UniProt P21860)	100

Series 4
Structure (SMILES): CNC(=O)c1cc(Oc2ccc(NC(=O)Nc3ccc(Cl)c(C(F)(F)F)c3)cc2)ccn1
Observed: enzyme activity
Mode: inhibitor
Concentration: 0.5 µM
Baseline: control
target	remaining activity [%]
Ephrin type-A receptor 3 (EPHA3, Homo sapiens, UniProt P29320)	95.5
MAP kinase-activated protein kinase 2 (MAPKAPK2, Homo sapiens, UniProt P49137)	100
Macrophage-stimulating protein receptor (MST1R, Homo sapiens, UniProt Q04912)	97.6
Rhodopsin kinase GRK7 (GRK7, Homo sapiens, UniProt Q8WTQ7)	97.3
Activin receptor type-1B (ACVR1B, Homo sapiens, UniProt P36896)	102
